Earlier results as cited in several papers.
Numbered parts are unrelated; values within a part may stem from several laboratories. Values joined by “and” are separate records of one study, mostly repeats; a detail may differ.

Set 1
Organism: Toxoplasma gondii
Read-out: parasite growth
Tested at: concentration not given
Setting: published screen
`c1cnc(N2CCN(Cc3ccc4c(c3)OCO4)CC2)nc1` — result for activity class: “inactive”.
Under activity class, `CN(CCCN1c2ccccc2CCc2ccccc21)CC(=O)c1ccc(Cl)cc1` is recorded as “inactive”.
Under activity class, `CC[C@@H]1C(=O)OC[C@@H]1Cc1cncn1C.Cl` is recorded as “inactive”.
For `Nc1cc(N2CCCCC2)nc(N)[n+]1[O-]`, activity class read “inactive”.
For `COc1cccc2c1C(=O)c1c(O)c3c(c(O)c1C2=O)C[C@@](O)(C(=O)CO)C[C@@H]3O[C@H]1C[C@H](N)[C@H](O)[C@H](C)O1`, activity class read “inactive”.
`COC(=O)C1=C(C)NC(C)=C(C(=O)OC(C)C)C1c1cccc2nonc12` (stereo not drawn): activity class “inactive”.
For `Cc1sc(N)c(C(=O)c2cccc(C(F)(F)F)c2)c1C`, activity class read “inactive”.
`CNS(=O)(=O)Cc1ccc2[nH]cc(CCN(C)C)c2c1` — result for activity class: “inactive”.
Under activity class, `CCC1=C(C)CN(C(=O)NCCc2ccc(S(=O)(=O)NC(=O)N[C@H]3CC[C@H](C)CC3)cc2)C1=O` is recorded as “inactive”.
Under activity class, `CCC1(c2ccccc2)C(=O)NCNC1=O` is recorded as “inactive”.
For `C[C@@H]1C[C@H]2[C@@H]3CCC4=CC(=O)C=C[C@]4(C)[C@@]3(F)[C@@H](O)C[C@]2(C)[C@@]1(O)C(=O)CO`, activity class read “inactive”.
For `CCC(C)(C)C(=O)O[C@H]1C[C@@H](C)C=C2C=C[C@H](C)[C@H](CC[C@@H]3C[C@@H](O)CC(=O)O3)[C@H]21`, activity class read “inactive”.
`CC1=NS(=O)(=O)c2cc(Cl)ccc2N1` — result for activity class: “inactive”.
`CCC(=O)O[C@]1(C(=O)SCF)[C@H](C)C[C@H]2[C@@H]3C[C@H](F)C4=CC(=O)C=C[C@]4(C)[C@@]3(F)[C@@H](O)C[C@@]21C`: activity class “inactive”.
`CCN1CCC[C@H]1CNC(=O)c1c(O)c(Cl)cc(Cl)c1OC` — result for activity class: “inactive”.
Under activity class, `CC(C)[N+]1(C)[C@@H]2CC[C@H]1C[C@@H](OC(=O)C(CO)c1ccccc1)C2` (stereo partly drawn) is recorded as “inactive”.
`CC[C@]1(O)C[C@H]2CN(CCc3c([nH]c4ccccc34)[C@@](C(=O)OC)(c3cc4c(cc3OC)N(C=O)[C@H]3[C@@](O)(C(=O)OC)[C@H](OC(C)=O)[C@]5(CC)C=CCN6CC[C@]43[C@@H]65)C2)C1` — result for activity class: “inactive”.
For `COc1cccc2c1C(=O)c1c(O)c3c(c(O)c1C2=O)C[C@@](O)(C(C)=O)C[C@@H]3O[C@H]1C[C@H](N)[C@H](O)[C@H](C)O1`, activity class read “inactive”.
Under activity class, `CC(C)NCC(O)COc1cccc2[nH]ccc12` (stereo not drawn) is recorded as “inactive”.
For `CC(C(=O)O)c1ccc(-c2ccccc2)c(F)c1` (stereo not drawn), activity class read “inactive”.
Under activity class, `O=C1CCC(N2C(=O)c3ccccc3C2=O)C(=O)N1` (stereo not drawn) is recorded as “inactive”.
`Nc1nc(F)nc2c1ncn2[C@@H]1O[C@H](CO)[C@@H](O)[C@@H]1O` — result for activity class: “inactive”.
`CCOC(=O)c1ncn2c1CN(C)C(=O)c1cc(F)ccc1-2` — result for activity class: “inactive”.
`COc1nc(C)nc(Cl)c1NC1=NCCN1.Cl`: activity class “inactive”.
Under activity class, `OCc1cc(C(O)CNCCCCCCOCCCCc2ccccc2)ccc1O` (stereo not drawn) is recorded as “inactive”.

Set 2
Structure (SMILES): CNC(=O)c1ccc(Nc2ncc(C(F)(F)F)c(NCc3nccnc3N(C)S(C)(=O)=O)n2)cc1
It gave 0.0753 µM for IC50 (MAP3K9; kinase activity).
For LYN; Cerep selectivity panel: IC50 read 1.1 µM.
It gave 2.5 µM for IC50 (FLT1; Cerep selectivity panel).

Set 3
SMILES: C=CC(=O)N1CCN(c2ncnc3c(F)c(-c4c(O)cccc4F)c(Cl)cc23)CC1
Measured: phospho-ERK
MIA PaCa-2; 41.2 nM — ERK phosphorylation: 97% and 94.4%.
The ERK phosphorylation was 5.77% and 7.15% (MIA PaCa-2; 10 µM).
It gave 102% and 104% for ERK phosphorylation (MIA PaCa-2; 13.7 nM).
For MIA PaCa-2; 370 nM: ERK phosphorylation read 60.1% and 72.2%.
For NCI-H358; 0.04575 µM: ERK phosphorylation read 17.4% and 12.8%.
NCI-H358; 1 µM — ERK phosphorylation: 2.52% and 2.32%.
MIA PaCa-2; 500 pM — ERK phosphorylation: 101% and 107%.
It gave 4.24% and 9.8% for ERK phosphorylation (NCI-H358; 0.5229 µM).

Set 4
Structure (SMILES): CCCCCCCCNC(C)C(O)c1ccc(SC(C)C)cc1 (stereo not drawn)
Cell line: MCF7
Technique: microarray
Tested at: concentration not given
Baseline: DMSO
It gave 2.16 for “log2 fold change” (measured: SQLE mRNA).
It gave 1.21 for “log2 fold change” (measured: UPP1 mRNA).
It gave 1.49 for “log2 fold change” (measured: TSC22D3 mRNA).
measured: TRAF5 mRNA — “log2 fold change”: 0.54.
For measured: TES mRNA: “log2 fold change” read 1.65.
It gave 5.57 for “log2 fold change” (measured: TNFAIP3 mRNA).
For measured: SLC7A11 mRNA: “log2 fold change” read 4.96.
For measured: SLC38A2 mRNA: “log2 fold change” read 1.19.
For measured: ZNHIT2 mRNA: “log2 fold change” read 1.05.
For measured: ZNF292 mRNA: “log2 fold change” read 1.21.

Single results of other studies
DDR2: Discoidin domain-containing receptor 2 (DDR2, Homo sapiens, UniProt Q16832)
Sequence of UniProt Q16832 (whole entry, looked up): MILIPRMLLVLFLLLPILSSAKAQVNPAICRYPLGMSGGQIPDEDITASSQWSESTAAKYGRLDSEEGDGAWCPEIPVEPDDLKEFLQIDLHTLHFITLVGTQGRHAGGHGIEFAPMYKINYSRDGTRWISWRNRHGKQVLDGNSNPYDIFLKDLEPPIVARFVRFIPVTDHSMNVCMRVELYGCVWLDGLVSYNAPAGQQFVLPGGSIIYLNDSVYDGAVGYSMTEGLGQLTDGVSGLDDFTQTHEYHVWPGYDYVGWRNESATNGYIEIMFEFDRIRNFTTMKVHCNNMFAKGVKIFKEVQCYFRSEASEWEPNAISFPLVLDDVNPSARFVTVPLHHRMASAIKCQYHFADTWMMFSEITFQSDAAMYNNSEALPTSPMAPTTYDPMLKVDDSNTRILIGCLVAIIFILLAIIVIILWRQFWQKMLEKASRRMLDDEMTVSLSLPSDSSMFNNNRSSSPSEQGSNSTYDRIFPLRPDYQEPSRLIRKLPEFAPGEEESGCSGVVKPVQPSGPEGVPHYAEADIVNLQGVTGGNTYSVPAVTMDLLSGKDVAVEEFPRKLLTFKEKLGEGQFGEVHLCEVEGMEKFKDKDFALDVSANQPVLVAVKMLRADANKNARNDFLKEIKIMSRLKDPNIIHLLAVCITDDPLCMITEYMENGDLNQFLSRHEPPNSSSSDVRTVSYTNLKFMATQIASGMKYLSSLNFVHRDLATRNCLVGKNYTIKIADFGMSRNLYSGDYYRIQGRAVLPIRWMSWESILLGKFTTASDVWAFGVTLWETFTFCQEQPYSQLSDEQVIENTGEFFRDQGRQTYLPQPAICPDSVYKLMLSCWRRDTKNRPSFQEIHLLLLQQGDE
For `CC[C@@H]1C(=O)N(C)[C@@H](CC)C(=O)N[C@@H](CC(C)C)C(=O)N2CCC[C@@H]2C(=O)N(C)[C@@H](Cc2ccccc2)C(=O)N[C@@H](CC(C)C)C(=O)N1C`, the logD was 1.74 (hydrocarbon/water; pH 7.4).
The IC50 of `Cc1cc(C)c(-n2ccn3nc(-c4cccnc4)cc23)cc1NC(=O)c1cc(C#N)cc(S(F)(F)(F)(F)F)c1` is reported as 0.00054 µM (DDR2; target binding, NanoBRET).
`CC(C)C[C@@H]1NC(=O)[C@H](Cc2ccccc2)NC(=O)[C@H]2CCCN2C(=O)[C@H](CC(C)C)NC(=O)[C@H](CC(C)C)NC(=O)[C@@H](CC(C)C)NC1=O` gave a logD of 0.83 (hydrocarbon/water; pH 7.4).
`Cc1ccc(C(=O)Nc2cccc(C(F)(F)F)c2)cc1Nc1cncc(C(N)=O)c1` gave an IC50 of 0.012 µM (DDR2; enzyme activity, radiometric).
`Cc1ccc2nc(NCCN)c3ncc(C)n3c2c1` gave an IC50 of ~4 µM (IKK-alpha and IKK-beta; cellular potency).

Excerpt of the above (set 1):
`CNS(=O)(=O)Cc1ccc2[nH]cc(CCN(C)C)c2c1` — result for activity class: “inactive”.
Under activity class, `CCC1=C(C)CN(C(=O)NCCc2ccc(S(=O)(=O)NC(=O)N[C@H]3CC[C@H](C)CC3)cc2)C1=O` is recorded as “inactive”.
Under activity class, `CCC1(c2ccccc2)C(=O)NCNC1=O` is recorded as “inactive”.
For `C[C@@H]1C[C@H]2[C@@H]3CCC4=CC(=O)C=C[C@]4(C)[C@@]3(F)[C@@H](O)C[C@]2(C)[C@@]1(O)C(=O)CO`, activity class read “inactive”.
For `CCC(C)(C)C(=O)O[C@H]1C[C@@H](C)C=C2C=C[C@H](C)[C@H](CC[C@@H]3C[C@@H](O)CC(=O)O3)[C@H]21`, activity class read “inactive”.
`CC1=NS(=O)(=O)c2cc(Cl)ccc2N1` — result for activity class: “inactive”.
`CCC(=O)O[C@]1(C(=O)SCF)[C@H](C)C[C@H]2[C@@H]3C[C@H](F)C4=CC(=O)C=C[C@]4(C)[C@@]3(F)[C@@H](O)C[C@@]21C`: activity class “inactive”.
`CCN1CCC[C@H]1CNC(=O)c1c(O)c(Cl)cc(Cl)c1OC` — result for activity class: “inactive”.
Under activity class, `CC(C)[N+]1(C)[C@@H]2CC[C@H]1C[C@@H](OC(=O)C(CO)c1ccccc1)C2` (stereo partly drawn) is recorded as “inactive”.
